Assay results pooled from the literature.
Each line is one published result; not all experiments were run side by side.
Sequence of UniProt P37136 (whole entry, looked up): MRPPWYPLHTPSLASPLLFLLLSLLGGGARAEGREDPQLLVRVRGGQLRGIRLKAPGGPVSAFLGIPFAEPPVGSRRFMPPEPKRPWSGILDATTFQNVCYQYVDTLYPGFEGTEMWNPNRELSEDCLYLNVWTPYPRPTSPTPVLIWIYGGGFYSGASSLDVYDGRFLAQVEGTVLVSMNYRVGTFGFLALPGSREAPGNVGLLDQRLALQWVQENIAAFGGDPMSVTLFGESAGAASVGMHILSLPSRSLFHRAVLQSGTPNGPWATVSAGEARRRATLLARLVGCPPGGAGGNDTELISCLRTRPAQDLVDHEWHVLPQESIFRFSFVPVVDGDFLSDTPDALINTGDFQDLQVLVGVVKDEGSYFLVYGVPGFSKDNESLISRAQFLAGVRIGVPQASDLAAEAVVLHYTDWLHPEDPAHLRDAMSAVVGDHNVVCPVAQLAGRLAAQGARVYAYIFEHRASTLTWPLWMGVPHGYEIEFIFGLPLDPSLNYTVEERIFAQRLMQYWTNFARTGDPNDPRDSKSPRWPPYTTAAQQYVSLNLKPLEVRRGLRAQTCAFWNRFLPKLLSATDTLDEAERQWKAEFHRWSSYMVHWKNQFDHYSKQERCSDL

| Molecule | target or system | test | system | conditions | how to read | quantity | value |
| --- | --- | --- | --- | --- | --- | --- | --- |
| phoxim-oxon | Acetylcholinesterase (Ache, Rattus norvegicus, UniProt P37136) | enzyme activity, inhibitor, Ellman | rat, postnatal day 12, lung homogenate | 15 min, 37 °C |  | IC50 | 21 nM |
| maraviroc |  |  | black CYP3A5 poor metabolizers, plasma | 300 mg twice daily |  | C12 | 59.8 ng/mL |
| deucravacitinib |  |  | human | 12 mg once daily, day 12, multiple dose |  | effective half-life | 13.1 h |
| vorinostat glucuronide |  |  | patients, plasma | oral, 100 mg vorinostat three times daily, 3 days, added: idarubicin |  | Cmax | 1210 nM |
| semaglutide |  | refers to: unlikely related to drug | human, safety analysis set | concentration not given, 32 weeks, run-in |  | participants with adverse events | 56.3% |
| chicoric acid | IPEC-J2 monolayer |  |  | added: chloroquine 30 µM | relative to: without inhibitor | Papp basolateral to apical | no effect |

Repeated from above:
| Molecule | target or system | test | system | conditions | how to read | quantity | value |
| --- | --- | --- | --- | --- | --- | --- | --- |
| semaglutide |  | refers to: unlikely related to drug | human, safety analysis set | concentration not given, 32 weeks, run-in |  | participants with adverse events | 56.3% |
